# Measurements of several laboratories.
# Numbered parts are unrelated; each lists some results of a single study. Values joined by “and” are separate records of one study, mostly repeats; a detail may differ.
# UniProt P21728, sequence (whole entry, looked up): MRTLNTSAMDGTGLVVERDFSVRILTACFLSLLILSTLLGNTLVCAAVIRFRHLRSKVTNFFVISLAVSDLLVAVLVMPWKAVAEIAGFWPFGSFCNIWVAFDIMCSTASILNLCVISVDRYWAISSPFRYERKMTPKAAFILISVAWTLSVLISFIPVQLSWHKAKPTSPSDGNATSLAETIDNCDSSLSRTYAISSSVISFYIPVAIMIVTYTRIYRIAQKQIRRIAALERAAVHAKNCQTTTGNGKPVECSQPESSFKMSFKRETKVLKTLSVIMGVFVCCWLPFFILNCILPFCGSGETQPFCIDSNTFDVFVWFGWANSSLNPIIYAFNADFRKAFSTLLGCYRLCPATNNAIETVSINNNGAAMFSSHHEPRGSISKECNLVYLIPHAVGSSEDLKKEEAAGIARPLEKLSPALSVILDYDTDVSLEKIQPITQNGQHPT
# UniProt Q9Y5N1, sequence (whole entry, looked up): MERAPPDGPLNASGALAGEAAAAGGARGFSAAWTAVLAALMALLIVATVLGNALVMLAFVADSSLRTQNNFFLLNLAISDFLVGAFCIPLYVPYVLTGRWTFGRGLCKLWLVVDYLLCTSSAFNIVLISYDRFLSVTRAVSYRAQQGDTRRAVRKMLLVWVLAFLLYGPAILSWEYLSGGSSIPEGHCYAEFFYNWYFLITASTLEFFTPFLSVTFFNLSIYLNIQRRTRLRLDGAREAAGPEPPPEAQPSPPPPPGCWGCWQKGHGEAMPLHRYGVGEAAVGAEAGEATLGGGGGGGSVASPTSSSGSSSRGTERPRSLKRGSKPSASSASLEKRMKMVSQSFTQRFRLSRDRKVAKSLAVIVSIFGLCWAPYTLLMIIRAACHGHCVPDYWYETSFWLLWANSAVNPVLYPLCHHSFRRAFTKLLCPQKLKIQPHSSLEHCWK
# UniProt P28221, sequence (whole entry, looked up): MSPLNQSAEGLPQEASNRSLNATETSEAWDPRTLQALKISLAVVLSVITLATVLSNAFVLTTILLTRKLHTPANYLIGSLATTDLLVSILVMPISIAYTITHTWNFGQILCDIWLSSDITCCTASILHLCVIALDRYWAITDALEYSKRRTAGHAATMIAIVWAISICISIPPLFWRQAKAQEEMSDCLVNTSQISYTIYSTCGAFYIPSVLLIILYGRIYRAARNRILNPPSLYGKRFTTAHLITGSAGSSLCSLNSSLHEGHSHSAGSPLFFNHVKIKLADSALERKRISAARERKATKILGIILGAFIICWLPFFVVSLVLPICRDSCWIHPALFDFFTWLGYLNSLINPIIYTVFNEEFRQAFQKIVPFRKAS
# UniProt P35348, sequence (whole entry, looked up): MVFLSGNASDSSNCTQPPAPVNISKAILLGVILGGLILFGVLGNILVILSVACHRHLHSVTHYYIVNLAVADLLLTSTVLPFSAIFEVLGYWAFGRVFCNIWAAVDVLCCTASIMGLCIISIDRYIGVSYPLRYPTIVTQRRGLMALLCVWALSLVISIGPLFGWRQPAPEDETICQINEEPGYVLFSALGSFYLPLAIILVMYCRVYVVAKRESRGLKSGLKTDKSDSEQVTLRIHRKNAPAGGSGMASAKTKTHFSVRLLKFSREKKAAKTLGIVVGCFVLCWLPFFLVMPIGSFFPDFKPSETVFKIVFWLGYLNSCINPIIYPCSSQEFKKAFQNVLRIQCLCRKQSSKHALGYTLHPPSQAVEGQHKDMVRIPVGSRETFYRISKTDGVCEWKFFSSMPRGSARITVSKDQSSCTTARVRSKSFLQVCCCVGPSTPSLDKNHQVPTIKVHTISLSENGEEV
# UniProt P47898, sequence (whole entry, looked up): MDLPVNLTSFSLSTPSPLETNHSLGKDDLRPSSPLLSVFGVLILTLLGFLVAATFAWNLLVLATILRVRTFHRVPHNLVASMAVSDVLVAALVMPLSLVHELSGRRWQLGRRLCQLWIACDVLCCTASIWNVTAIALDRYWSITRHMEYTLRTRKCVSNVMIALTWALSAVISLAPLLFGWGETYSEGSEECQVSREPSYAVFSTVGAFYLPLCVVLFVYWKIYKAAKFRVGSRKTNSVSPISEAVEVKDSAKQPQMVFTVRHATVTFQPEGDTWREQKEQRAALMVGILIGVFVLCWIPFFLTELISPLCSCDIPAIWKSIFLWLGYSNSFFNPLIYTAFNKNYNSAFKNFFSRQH
# UniProt P25021, sequence (whole entry, looked up): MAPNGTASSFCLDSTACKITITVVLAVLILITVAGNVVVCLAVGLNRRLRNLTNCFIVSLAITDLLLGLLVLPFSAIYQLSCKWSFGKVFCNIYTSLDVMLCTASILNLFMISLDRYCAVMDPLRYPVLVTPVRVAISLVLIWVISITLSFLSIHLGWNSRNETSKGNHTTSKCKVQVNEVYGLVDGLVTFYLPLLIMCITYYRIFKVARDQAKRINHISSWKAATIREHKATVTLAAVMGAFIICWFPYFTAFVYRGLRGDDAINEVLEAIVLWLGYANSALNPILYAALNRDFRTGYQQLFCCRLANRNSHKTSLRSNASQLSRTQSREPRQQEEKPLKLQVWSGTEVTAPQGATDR

# Block 1
# Organism: Sarcocystis neurona
# Read-out: parasite activity
# Tested at: 10 µM
# Time: 96 h
Compound,activity class
CCCCC[C@H](O)/C=C/[C@H]1[C@H](O)CC(=O)[C@@H]1CCCCCCC(=O)O,inactive
CCN1CCC[C@H]1CNC(=O)c1cc(S(N)(=O)=O)ccc1OC,inactive
CCc1nn(CCCN2CCN(c3cccc(Cl)c3)CC2)c(=O)n1CCOc1ccccc1,inactive
C[C@H]1COc2c(N3CCN(C)CC3)c(F)cc3c(=O)c(C(=O)O)cn1c23,inactive
COc1ccc(C2CNC(=O)C2)cc1OC1CCCC1 (stereo not shown),inactive
CO/N=C(\C(=O)N[C@@H]1C(=O)N2C(C(=O)O)=C(COC(C)=O)CS[C@H]12)c1csc(N)n1,inactive
CS(=O)(=O)OCCCCOS(C)(=O)=O,inactive
Cc1cccc(Nc2ccccc2C(=O)O)c1C,inactive
CC(C)C[C@H](NC(=O)[C@@H](O)[C@H](N)Cc1ccccc1)C(=O)O,inactive
NC(=O)c1ncn([C@@H]2O[C@H](CO)[C@@H](O)[C@H]2O)n1,inactive
CC[N+](C)(CC)CCOC(=O)C(O)(c1ccccc1)C1CCCCC1 (stereo not shown),inactive

# Block 2
# Compound: O=C(O)[C@H]1[C@H](Cn2nnc3ccccc3c2=O)CC[C@@H]1C(=O)c1ccc(OCCC2CCOCC2)cc1
# Read-out: ligand displacement
# Tested at: 10 µM
target,assay,inhibition [%]
"CHRM4 (Homo sapiens, UniProt P08173)",,-5.24
"HTR5A (Homo sapiens, UniProt P47898)",,6.91
"HRH2 (Homo sapiens, UniProt P25021)",,12.6
"HTR1D (Homo sapiens, UniProt P28221)",radioligand,4.82
"HRH3 (Homo sapiens, UniProt Q9Y5N1)",,-2.95
"ADRB3 (Homo sapiens, UniProt P13945)",,-22.9
"ADRB1 (Homo sapiens, UniProt P08588)",,-17.4
"DRD1 (Homo sapiens, UniProt P21728)",,1.16
"ADRA2B (Homo sapiens, UniProt P18089)",,3.34
"ADRA1A (Homo sapiens, UniProt P35348)",,-10.9
"DRD3 (Homo sapiens, UniProt P35462)",,7.27

# Block 3
# Target: DNA polymerase theta, ATPase domain (POLQ, Homo sapiens, UniProt O75417)
# UniProt O75417, sequence (whole entry, unmodified, looked up): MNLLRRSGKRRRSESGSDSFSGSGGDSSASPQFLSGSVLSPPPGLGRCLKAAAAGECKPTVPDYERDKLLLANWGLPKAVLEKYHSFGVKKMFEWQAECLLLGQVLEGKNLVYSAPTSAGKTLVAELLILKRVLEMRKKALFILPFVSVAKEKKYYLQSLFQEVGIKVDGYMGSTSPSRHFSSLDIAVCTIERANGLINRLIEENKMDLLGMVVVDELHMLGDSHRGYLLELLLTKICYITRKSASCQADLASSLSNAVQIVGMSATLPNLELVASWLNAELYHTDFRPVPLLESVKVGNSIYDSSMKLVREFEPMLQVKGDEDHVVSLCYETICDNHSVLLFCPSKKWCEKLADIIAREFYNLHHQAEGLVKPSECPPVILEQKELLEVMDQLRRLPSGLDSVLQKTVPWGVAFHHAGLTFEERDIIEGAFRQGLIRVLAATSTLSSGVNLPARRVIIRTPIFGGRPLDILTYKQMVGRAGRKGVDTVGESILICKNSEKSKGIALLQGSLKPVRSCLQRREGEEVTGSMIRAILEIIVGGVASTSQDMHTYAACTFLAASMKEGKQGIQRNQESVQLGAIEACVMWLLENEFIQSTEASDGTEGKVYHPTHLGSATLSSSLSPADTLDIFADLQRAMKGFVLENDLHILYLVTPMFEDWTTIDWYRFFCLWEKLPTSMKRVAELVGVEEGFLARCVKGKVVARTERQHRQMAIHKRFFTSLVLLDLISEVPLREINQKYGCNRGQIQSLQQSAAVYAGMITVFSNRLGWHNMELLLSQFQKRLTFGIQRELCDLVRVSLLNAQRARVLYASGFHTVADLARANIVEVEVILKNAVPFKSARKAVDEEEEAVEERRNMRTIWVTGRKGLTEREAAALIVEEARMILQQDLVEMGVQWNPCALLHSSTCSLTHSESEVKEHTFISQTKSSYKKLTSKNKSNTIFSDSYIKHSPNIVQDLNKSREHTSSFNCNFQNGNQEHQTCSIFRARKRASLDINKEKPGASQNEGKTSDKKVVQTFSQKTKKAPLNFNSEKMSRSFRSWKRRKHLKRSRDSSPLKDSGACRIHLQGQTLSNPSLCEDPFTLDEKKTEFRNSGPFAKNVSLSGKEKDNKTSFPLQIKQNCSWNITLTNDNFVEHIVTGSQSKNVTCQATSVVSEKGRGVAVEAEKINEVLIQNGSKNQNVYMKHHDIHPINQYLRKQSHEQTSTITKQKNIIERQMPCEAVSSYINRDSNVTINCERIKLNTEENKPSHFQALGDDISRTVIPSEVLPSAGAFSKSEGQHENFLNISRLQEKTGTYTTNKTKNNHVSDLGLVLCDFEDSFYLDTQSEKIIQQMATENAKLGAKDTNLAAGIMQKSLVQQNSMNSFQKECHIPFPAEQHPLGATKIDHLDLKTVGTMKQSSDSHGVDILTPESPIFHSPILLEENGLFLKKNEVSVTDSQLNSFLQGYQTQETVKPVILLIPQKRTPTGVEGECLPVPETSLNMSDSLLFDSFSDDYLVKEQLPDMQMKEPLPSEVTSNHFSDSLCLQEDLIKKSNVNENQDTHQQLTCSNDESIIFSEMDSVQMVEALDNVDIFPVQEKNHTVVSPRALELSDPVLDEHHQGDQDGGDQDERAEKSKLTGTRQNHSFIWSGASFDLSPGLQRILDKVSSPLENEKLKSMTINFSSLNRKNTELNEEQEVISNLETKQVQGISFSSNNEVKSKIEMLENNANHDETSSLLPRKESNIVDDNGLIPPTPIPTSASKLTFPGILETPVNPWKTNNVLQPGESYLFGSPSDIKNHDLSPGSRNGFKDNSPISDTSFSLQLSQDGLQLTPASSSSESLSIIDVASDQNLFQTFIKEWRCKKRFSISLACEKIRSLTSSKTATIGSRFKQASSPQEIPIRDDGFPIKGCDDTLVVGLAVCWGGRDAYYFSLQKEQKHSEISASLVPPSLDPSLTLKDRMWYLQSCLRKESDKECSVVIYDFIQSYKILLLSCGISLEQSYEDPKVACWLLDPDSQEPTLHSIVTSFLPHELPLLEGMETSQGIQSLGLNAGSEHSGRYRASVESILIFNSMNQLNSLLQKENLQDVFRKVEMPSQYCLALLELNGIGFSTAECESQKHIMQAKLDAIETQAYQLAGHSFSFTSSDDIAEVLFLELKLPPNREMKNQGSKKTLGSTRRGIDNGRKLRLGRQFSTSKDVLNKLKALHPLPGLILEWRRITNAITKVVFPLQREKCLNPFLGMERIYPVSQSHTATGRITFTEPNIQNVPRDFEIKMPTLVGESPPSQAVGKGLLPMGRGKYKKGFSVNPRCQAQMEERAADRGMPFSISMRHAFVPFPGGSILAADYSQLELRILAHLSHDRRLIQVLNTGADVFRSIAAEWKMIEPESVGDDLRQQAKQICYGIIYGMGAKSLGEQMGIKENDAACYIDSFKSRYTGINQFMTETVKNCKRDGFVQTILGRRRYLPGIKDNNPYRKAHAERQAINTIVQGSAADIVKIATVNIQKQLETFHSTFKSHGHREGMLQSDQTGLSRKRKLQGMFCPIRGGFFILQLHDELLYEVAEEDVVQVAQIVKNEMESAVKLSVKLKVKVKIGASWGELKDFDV
# Read-out: enzyme activity
# Action: inhibitor
# Tested at: 77 µM
# Baseline: untreated
SMILES,remaining activity
CC(C)c1cc(-c2ccc(F)c3ccccc23)nc(N)n1,102%
CN(C)CC(c1ccc(O)cc1)C1(O)CCCCC1 (stereo not shown),101%
OCC(O)CN1CCN(c2ccccc2)CC1 (stereo not shown),100%
CCCc1cc(C(N)=S)ccn1,91.4%
CC(=O)OCC(=O)[C@@]12OC(C)(C)O[C@@H]1C[C@H]1[C@@H]3C[C@H](F)C4=CC(=O)C=C[C@]4(C)[C@@]3(F)[C@@H](O)C[C@@]12C,90.4% and 101%
CCCCC1(COC(=O)CCC(=O)O)C(=O)N(c2ccccc2)N(c2ccccc2)C1=O,111%
COc1cc(NS(=O)(=O)c2ccc(N)cc2)ncn1,99.5%
COc1ccc(OC)c(C(O)CNC(=O)CN)c1 (stereo not shown),97.2%

# Block 4
# Cell line: HaCaT
# Tested at: 100 µM
# Time: 18 h
SMILES,viability [%]
CC(C)OC(=O)C(C)(C)Oc1ccc(C(=O)c2ccc(Cl)cc2)cc1,79.8
CC(=O)[C@@]1(O)CC[C@H]2[C@@H]3C[C@H](C)C4=CC(=O)C=C[C@]4(C)[C@@]3(F)[C@@H](O)C[C@@]21C,108
C[C@H](N)[C@H](O)c1cccc(O)c1,111
Cc1ccc(C)c(OCCCC(C)(C)C(=O)O)c1,99.3
COc1cc([C@H]2Oc3cc([C@H]4Oc5cc(O)cc(O)c5C(=O)[C@@H]4O)ccc3O[C@@H]2CO)ccc1O,76.5
CNCCCN1c2ccccc2CCc2ccccc21,19.5
CCCC1O[C@@H]2C[C@H]3[C@@H]4CCC5=CC(=O)C=C[C@]5(C)[C@H]4[C@@H](O)C[C@]3(C)[C@]2(C(=O)CO)O1 (stereo partly shown),60.7
CCOC(=O)C1=C(C)NC(C)=C(C(=O)OC)C1c1cccc(Cl)c1Cl (stereo not shown),16.7
CCCc1nc2c(C)cc(-c3nc4ccccc4n3C)cc2n1Cc1ccc(-c2ccccc2C(=O)O)cc1,99.1
O=C(CS(=O)(=O)Cc1ccccc1)N1CCOCC1,116
C[C@]12CC[C@@H]3c4ccc(OS(=O)(=O)O)cc4CC[C@H]3[C@@H]1CCC2=O,108
O=C(CCNNC(=O)c1ccncc1)NCc1ccccc1,137
CC(=O)Nc1ccc(OC(=O)c2ccccc2OC(C)=O)cc1,89.9

# A few entries again (block 2):
target,assay,inhibition [%]
"HRH3 (Homo sapiens, UniProt Q9Y5N1)",,-2.95
"ADRB3 (Homo sapiens, UniProt P13945)",,-22.9
"ADRB1 (Homo sapiens, UniProt P08588)",,-17.4
